Measured values from different studies.
± gives the spread as reported.
Sequence of UniProt Q969F8 (whole entry, looked up): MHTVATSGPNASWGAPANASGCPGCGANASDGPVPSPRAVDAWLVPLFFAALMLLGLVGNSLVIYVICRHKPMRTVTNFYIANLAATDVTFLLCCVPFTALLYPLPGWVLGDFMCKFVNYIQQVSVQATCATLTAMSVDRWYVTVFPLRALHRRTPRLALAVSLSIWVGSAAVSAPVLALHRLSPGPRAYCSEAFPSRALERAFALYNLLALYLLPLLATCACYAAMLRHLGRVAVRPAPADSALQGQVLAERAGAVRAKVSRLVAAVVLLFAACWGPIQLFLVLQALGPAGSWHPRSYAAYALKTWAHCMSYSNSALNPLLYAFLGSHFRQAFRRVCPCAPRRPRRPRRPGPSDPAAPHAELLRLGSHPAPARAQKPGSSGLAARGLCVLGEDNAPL
Sequence of UniProt P06239 (whole entry, looked up): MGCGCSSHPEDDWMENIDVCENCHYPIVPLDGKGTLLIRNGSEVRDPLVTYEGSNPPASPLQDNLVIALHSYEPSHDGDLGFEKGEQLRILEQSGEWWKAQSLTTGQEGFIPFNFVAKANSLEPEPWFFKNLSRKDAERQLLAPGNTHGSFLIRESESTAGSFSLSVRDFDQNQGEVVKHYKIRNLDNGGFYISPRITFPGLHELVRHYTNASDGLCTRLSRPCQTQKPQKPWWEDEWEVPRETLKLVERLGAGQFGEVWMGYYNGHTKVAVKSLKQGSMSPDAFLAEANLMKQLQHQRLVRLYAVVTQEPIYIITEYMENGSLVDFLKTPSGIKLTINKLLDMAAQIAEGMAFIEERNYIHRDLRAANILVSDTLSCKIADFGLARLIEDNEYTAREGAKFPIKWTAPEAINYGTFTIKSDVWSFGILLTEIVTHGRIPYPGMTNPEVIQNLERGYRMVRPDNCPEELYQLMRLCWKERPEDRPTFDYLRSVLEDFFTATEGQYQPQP
Sequence of UniProt P28072 (whole entry, looked up): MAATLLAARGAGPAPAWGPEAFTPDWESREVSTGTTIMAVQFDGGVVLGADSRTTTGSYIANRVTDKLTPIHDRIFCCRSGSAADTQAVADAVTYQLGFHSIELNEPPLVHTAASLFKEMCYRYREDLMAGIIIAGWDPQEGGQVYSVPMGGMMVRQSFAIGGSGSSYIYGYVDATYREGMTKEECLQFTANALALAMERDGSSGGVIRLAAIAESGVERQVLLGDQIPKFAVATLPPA
Sequence of UniProt P00942 (whole entry, unmodified, looked up): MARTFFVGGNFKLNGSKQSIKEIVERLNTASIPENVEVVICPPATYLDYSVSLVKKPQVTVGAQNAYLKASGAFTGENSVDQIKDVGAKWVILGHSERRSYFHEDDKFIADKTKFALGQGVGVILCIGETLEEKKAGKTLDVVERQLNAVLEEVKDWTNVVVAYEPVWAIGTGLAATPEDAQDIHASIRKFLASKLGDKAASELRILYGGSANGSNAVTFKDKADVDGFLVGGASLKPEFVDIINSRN
Sequence of UniProt Q704Y3 (whole entry, unmodified, looked up): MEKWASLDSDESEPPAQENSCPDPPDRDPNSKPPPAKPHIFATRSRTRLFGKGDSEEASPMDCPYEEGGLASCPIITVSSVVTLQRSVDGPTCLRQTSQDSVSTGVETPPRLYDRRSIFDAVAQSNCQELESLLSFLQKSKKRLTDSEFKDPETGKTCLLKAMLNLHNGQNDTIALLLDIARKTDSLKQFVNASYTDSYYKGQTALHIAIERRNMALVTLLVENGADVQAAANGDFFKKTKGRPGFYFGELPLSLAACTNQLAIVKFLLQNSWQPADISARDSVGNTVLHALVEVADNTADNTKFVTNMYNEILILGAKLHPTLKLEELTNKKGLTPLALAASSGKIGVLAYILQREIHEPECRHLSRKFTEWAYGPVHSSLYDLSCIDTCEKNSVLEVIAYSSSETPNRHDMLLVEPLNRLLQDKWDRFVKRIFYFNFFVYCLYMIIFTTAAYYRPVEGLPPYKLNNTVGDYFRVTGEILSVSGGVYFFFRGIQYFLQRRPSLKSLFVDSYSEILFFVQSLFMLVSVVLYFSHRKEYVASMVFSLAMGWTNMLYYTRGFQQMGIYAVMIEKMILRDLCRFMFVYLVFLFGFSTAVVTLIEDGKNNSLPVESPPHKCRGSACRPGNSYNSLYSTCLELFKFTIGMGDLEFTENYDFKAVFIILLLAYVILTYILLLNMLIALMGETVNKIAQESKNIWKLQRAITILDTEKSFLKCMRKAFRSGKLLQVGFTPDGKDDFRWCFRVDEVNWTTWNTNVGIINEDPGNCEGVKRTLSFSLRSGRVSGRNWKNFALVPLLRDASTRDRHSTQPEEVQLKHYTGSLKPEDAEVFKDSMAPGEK
Sequence of UniProt Q62645 (whole entry, looked up): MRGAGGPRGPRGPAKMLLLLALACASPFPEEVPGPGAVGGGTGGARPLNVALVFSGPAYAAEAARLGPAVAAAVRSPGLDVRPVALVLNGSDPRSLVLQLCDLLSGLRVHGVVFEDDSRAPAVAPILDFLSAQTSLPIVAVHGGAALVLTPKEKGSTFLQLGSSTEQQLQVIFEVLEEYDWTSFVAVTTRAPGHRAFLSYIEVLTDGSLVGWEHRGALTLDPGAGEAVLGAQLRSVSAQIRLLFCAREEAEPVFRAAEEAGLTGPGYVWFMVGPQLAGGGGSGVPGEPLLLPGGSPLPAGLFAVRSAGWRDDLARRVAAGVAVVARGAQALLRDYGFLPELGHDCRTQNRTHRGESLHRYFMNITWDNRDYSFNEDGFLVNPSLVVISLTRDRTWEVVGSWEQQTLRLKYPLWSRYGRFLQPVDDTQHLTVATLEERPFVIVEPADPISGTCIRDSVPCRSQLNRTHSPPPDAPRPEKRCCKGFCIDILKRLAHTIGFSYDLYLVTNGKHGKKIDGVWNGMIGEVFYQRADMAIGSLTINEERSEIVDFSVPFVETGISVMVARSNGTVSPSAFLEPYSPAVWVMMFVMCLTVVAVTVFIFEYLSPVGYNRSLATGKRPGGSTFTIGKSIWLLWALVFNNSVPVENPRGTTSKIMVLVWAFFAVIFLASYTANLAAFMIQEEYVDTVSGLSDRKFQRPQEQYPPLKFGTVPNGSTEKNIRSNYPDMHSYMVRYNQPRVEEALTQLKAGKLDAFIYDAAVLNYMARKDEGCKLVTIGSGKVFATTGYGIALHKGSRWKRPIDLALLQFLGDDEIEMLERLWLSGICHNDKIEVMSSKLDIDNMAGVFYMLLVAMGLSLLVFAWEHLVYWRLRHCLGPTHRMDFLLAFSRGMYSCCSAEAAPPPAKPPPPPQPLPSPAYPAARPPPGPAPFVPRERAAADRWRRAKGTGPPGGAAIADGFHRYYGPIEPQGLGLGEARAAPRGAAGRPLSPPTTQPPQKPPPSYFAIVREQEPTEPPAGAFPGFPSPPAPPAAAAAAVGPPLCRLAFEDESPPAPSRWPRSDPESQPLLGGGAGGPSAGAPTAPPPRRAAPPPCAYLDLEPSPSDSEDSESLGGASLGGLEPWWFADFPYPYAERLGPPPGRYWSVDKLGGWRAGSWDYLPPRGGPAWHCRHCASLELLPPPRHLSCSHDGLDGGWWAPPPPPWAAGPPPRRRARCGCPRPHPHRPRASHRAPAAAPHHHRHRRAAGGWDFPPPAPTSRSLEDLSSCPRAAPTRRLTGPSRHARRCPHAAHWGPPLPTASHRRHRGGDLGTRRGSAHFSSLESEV

O=c1oc(-c2cccc(F)c2)ns1  kobs/[I] (PSMB6 (Homo sapiens, UniProt P28072); enzyme inactivation, inhibitor; human PA28-activated proteasome): 0.69 M⁻¹ s⁻¹
CCCCC/C=C\C/C=C\C/C=C\C/C=C\CCCC(=O)NCCO  Hill coefficient (Trpv1 (Mus musculus, UniProt Q704Y3, Y512F); ion current, agonist, whole-cell patch clamp; Y512F): 3.55 ± 0.67
COc1ccc(Nc2nn3c(-c4ccccc4)ccnc3c2C(=O)Nc2ccc(Cl)cc2)cc1  decrease in band quantity (α-glucosidase; SDS-PAGE, refers to: 1 kDa band; 1 mg/mL): 48.6%
c1cc(N2CCNCC2)c2cc[nH]c2c1  Emax (CHRM2 (Homo sapiens, UniProt P08172); ERK1/2 phosphorylation, agonist; CHO cells): < 10%
COc1ccc(N2C(=O)N(c3c(C)cccc3Cl)Cc3cnc(Nc4ccc(C5CCN(C)CC5)cc4OC)nc32)nc1  inhibition (SLK (Homo sapiens, UniProt Q9H2G2); kinase activity; 0.5 µM): 19%
Nc1ncnc2c1ncn2[C@@H]1O[C@H](COP(=O)(O)O)[C@@H](O)[C@H]1O  ligand concentration at rate minimum (Thermonuclease (nuc, Staphylococcus aureus, UniProt P00644); ligand-coupled folding kinetics; pH 7.0, 22 °C, 2.7 M urea): ~1 mM
CC(C)[C@@H](O)CC[C@@H](C)[C@H]1CC[C@H]2[C@@H]3CC=C4C[C@@H](O)CC[C@]4(C)[C@H]3CC[C@]12C  current response (Glutamate NMDA receptor; GRIN1/GRIN2B (GRIN1/GRIN2B, Homo sapiens, UniProt Q05586+Q13224, E657A); positive allosteric modulator, two-electrode voltage clamp; Xenopus oocytes expressing GluN2B-E657A; 10 µM, 0.02% cremophor, added: 100 µM glutamate and glycine; relative to: without compound): 227 ± 18%
COc1cc2nccc(Oc3ccc(NC(=O)c4cc5c(n(-c6ccccc6)c4=O)CCCC5=O)nc3)c2cc1OC  selectivity ratio (LCK (Homo sapiens, UniProt P06239); cell viability, CellTiter-Glo; Ba/F3 expressing recombinant kinase; relative to: LCK IC50 over AXL IC50): > 100
COC(=O)[C@@]1(O)C[C@H]2O[C@]1(C)n1c3ccccc3c3c4c(c5c6ccccc6n2c5c31)C(=O)NC4  remaining activity (MAPK3 (Homo sapiens, UniProt P27361); ADP-Glo; 4.15 µM, added: substrate MBP): 110%
O=C(c1ccc(Cl)cc1)N1CCN2C(=O)N(OC(=O)N3CCOc4ccccc43)C(=O)C2C1 (stereo not drawn)  median protein ratio (PRCP (Homo sapiens, UniProt P42785); MS-based ABPP; SW-620 conditioned medium; 10 µM, 1 h, 37 °C; relative to: compound over DMSO, lower = more inhibition): 1.16
CN1CCN(c2cc(-c3ccncc3)c(-c3ccc4ccccc4c3)nn2)CC1  inhibition (GRM2 (Homo sapiens, UniProt Q14416); antagonist, FLIPR; 10 µM): 27.7%
O=c1c2ccccc2oc2cc(OCCCCc3ccccc3)ccc12  reaction velocity (ache (Electrophorus electricus, UniProt O42275); enzyme activity; 0.73 µM, added: substrate 0.43 mM; higher = faster reaction): 0.0006 a.u.
COc1cc(N)c(Cl)cc1C(=O)NC1CN2CCC1CC2 (stereo not drawn)  log2 fold change (KiSS-1 receptor (KISS1R, Homo sapiens, UniProt Q969F8); receptor activation, TANGO luminescence; concentration not given, unconfirmed screen; relative to: vehicle control): -0.513
Cc1onc(-c2c(Cl)cccc2Cl)c1C(=O)N[C@@H]1C(=O)N2[C@@H]1SC(C)(C)[C@@H]2C(=O)O  kinact/KI (Penicillin-binding protein 2a (pbp2a, Streptococcus pneumoniae, UniProt Q8DNB6); inhibitor): 2000 ± 100 M⁻¹ s⁻¹
C[C@H]1CN(c2n[nH]c3nc(N[C@H]4CC[C@H](NS(=O)(=O)CCC(F)(F)F)CC4)ncc23)CCO1  remaining binding (Stomatin-like protein 2, mitochondrial (Homo sapiens, UniProt Q9UJZ1); Kinobeads competition, refers to: STOML2; 0.16 µM, unit not given; relative to: vehicle): 0.98
COc1cc(O)cc(/C=C/c2ccc(O)cc2)c1  ΔG of binding (O-methyltransferase (Sorghum bicolor, UniProt A0A1B6PFV1); isothermal titration calorimetry; concentration not given, apo protein): -7.81 kcal/mol
COc1cc(Nc2ncc(F)c(Nc3ccc4c(n3)NC(=O)C(C)(C)O4)n2)cc(OC)c1OC  inhibition (CDC42BPB (Homo sapiens, UniProt Q9Y5S2); KINOMEscan; 10 µM, MRCKB): 0%
CN(C(=O)n1cnc(-c2ccc[n+]([O-])c2)c1)C1CCCCC1  fold change (Monoacylglycerol lipase ABHD6 (Abhd6, Rattus norvegicus, UniProt Q5XI64); enzyme activity, ABPP; rat, brain; oral, 30 mg/kg/day, 28 days; relative to: vehicle): -11.7
C#Cc1sc2ncn(CC(=O)N3CC(C)(F)C3)c(=O)c2c1-c1ccc(F)c(Br)c1  current potentiation (Grin1/Grin2b/Glutamate receptor ionotropic, NMDA 2D (Rattus norvegicus, UniProt P35439+Q00960+Q62645); potentiator, TEVC; Xenopus oocytes; 10 µM, triheteromeric receptor): ~280%
[2H]c1c([2H])c([C@]2([2H])CCCN2C(=O)C(C)(C)Oc2ccc3cn[nH]c3c2)c([2H])c([2H])c1C([2H])([2H])[2H]  remaining binding (PIP5K1C (Homo sapiens, UniProt O60331); KINOMEscan; 1 µM; relative to: DMSO control): 91%
CC12CCC(CC1)C(C)(C)O2  coupling efficiency (1,8-cineole 2-endo-monooxygenase (cinA, Citrobacter braakii, UniProt Q8VQF6); product per NADPH consumed, substrate, GC-MS; wild-type enzyme variant): 97.8%
CCCCCCCCCC(=O)NC1CCCC1  Hill slope (qscR, DNA-bound (Pseudomonas aeruginosa, UniProt G3XD77); DNA binding, ligand, EMSA; saturating ligand): 3.1
CN[C@@H]1C[C@H]2O[C@@](C)([C@@H]1OC)n1c3ccccc3c3c4c(c5c6ccccc6n2c5c31)C(=O)NC4  remaining activity (CDC2-like kinase 1 (Trypanosoma brucei brucei, UniProt Q382U0); kinase activity, ADP-Glo; 0.625 µM): 17.9%
Nc1ncc(-c2nc(N3CCOCC3)nc(N3CCOCC3)n2)c(C(F)F)n1  remaining binding (EGFR (Homo sapiens, UniProt P00533, del746-750); KINOMEscan; 10 µM): 77%
CC[C@H](C)[C@@H]1NC(=O)[C@H](Cc2c[nH]c3ccccc23)NC(=O)[C@H](Cc2ccc(O)cc2)NC(=O)CSC[C@@H](C(N)=O)NC(=O)[C@H]([C@@H](C)O)NC(=O)[C@H](CO)NC(=O)[C@H](C(C)C)NC(=O)[C@H](Cc2ccc(O)cc2)NC(=O)[C@H](CCCNC(=N)N)NC(=O)[C@H](Cc2ccc(O)cc2)NC(=O)[C@H]([C@@H](C)O)NC(=O)[C@H]([C@@H](C)O)NC(=O)[C@H](Cc2c[nH]c3ccccc23)NC(=O)[C@H](CO)NC(=O)[C@H](CC(N)=O)NC(=O)[C@H](CO)NC1=O  ΔG (Vacuolar protein sorting-associated protein 26A/Vacuolar protein sorting-associated protein 35, Vps35 residues 1–172 (Homo sapiens, UniProt O75436+Q96QK1); ITC; 25 °C): -8.8 ± 0.1 kcal/mol
CN(C(=O)n1cnc(-c2ccc[n+]([O-])c2)c1)C1CCCCC1  inhibition (GABAB1B receptor, human; binding; 10 µM, added: [3H]CGP-54626): 14%
O=C[C@H](O)COP(=O)(O)O  Km (TPI1 (Saccharomyces cerevisiae, UniProt P00942, Y208T); substrate, GPDH/NADH-coupled; pH 5.7, 25 °C): ~26 mM

A few entries again:
COc1ccc(Nc2nn3c(-c4ccccc4)ccnc3c2C(=O)Nc2ccc(Cl)cc2)cc1  decrease in band quantity (α-glucosidase; SDS-PAGE, refers to: 1 kDa band; 1 mg/mL): 48.6%
C[C@H]1CN(c2n[nH]c3nc(N[C@H]4CC[C@H](NS(=O)(=O)CCC(F)(F)F)CC4)ncc23)CCO1  remaining binding (Stomatin-like protein 2, mitochondrial (Homo sapiens, UniProt Q9UJZ1); Kinobeads competition, refers to: STOML2; 0.16 µM, unit not given; relative to: vehicle): 0.98
COc1ccc(N2C(=O)N(c3c(C)cccc3Cl)Cc3cnc(Nc4ccc(C5CCN(C)CC5)cc4OC)nc32)nc1  inhibition (SLK (Homo sapiens, UniProt Q9H2G2); kinase activity; 0.5 µM): 19%
